Published values of several laboratories.
A part holds a random share of what one study measured.

Set 1
Target: RNA binding protein fox-1 homolog 2, RRM domain, GST-SBP tag (RBFOX2, Homo sapiens, UniProt O43251-10, residues 100-194)
Method: RNA Bind-n-Seq
Molecule type: RNA
Sample: in vitro
Tested at: 365 nM
Setting: natural RNA segment, single round, ends assumed
Reference: no-protein control
Reading: higher = stronger binding
Constant ends, left off below: GGGAGUUCUACAGUCCGACGAUC … UGGAAUUCUCGGGUGCCAA
Residues (chain): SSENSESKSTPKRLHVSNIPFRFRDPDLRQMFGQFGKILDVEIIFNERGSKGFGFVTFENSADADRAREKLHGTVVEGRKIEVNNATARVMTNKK
| Oligonucleotide | RBNS enrichment (R) |
| --- | --- |
| UGUCUUCUUGUGUAUGGCAGGGCUGGGACUGCUGUCCCUUGUACAGUUUUCUGUCACUGGUGGGCACUGGACAGGCAUAGCAGACUCUCUUGUGGCCACACUAGGUUGUC | 0.207 |
| GUUGAGACCCCAGACUCUAGCCACACACAUGCCACAGACAUGCCAGGGAGUGGCAAAGCACUGACUCCUGAGCUCCCUUCCUCACUAGGACUCCAGUGUGACCCUGCACU | 0.451 |
| AAGUUGAUUGUAGUUGUCCCGUCCUGUGGGCUGGCUCACUGUCCUGUGUCCUUUGCGUUCCUCGUUUAAGCAAAAGAAGUUAGUAGCUAAUUCUAUCACGAAUGUUCUUG | 0.407 |
| UUUAGCAAUAUGCUCUACAUAAAAUCACUACAGAGAUACUAGUGGGGAAGACGAUUAACACACCUCUUACAGUAAUACUGCCUGUUAUUGGUAUAGCAGUGGUAUUUGCA | 1.19 |
| CUUUAAAAUGUUGUAUUUUUUCCCUGAAAUAAACUUUUAUGAUUUAAUGUCUUGGAAAAAGACUCACAUGAAAAGUGGCUUUUAUAUUUGGUAGGAUAAAGCCAUUGUCC | 0.54 |
| UAAUCAAAAGCUCAUUUCACAAGCAGAAAAAGGCGACAAGUUAAUUAAAGCAAGGAAAAGUGUCACUGAAACAUAAACUGCACCUUAUUGUUUUAUAUUUUUGUACAGAU | 0.34 |
| UUUUGCUUGGGAAAAAGGAGUUUUUCUUUAGAAACAGUGCCAAGAAUGAUAUAAACUACUUUUAACUAAGAUGCCUAACAGGCUUUUAACACAGGUGUCCAUCUCCACUC | 0.407 |
| GUGGCUUUGAGAAAAGGUACUUUCAAAAGAGGGCUUUCCAGAGCACAGCUCACAGCCAGCUGUUAGGACCCCACCCUUCUCCCUUUAUUGUGGAGGUGACUCACAGCAGA | 0.318 |

Set 2
Target: Centromere-binding protein 1, full length, N-terminal tag (CBF1, Saccharomyces cerevisiae, UniProt P17106, residues 1-351)
UniProt P17106, sequence (whole entry, looked up): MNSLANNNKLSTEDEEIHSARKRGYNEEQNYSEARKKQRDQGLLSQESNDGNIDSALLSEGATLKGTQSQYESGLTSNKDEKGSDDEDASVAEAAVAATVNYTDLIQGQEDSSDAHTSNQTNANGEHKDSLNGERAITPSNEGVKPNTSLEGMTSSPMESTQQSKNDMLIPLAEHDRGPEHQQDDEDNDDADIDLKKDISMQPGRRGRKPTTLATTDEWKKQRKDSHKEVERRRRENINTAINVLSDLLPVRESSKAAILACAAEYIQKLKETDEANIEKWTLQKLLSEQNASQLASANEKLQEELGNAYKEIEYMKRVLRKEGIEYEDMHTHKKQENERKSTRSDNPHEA
Method: protein-binding microarray
Molecule type: double-stranded DNA, one strand shown
Sample: in vitro
Tested at: 0.8 µM
Setting: whole 60-bp probe, no competitor
Reading: higher = stronger binding
Constant ends, left off below: … GTCTTGATTCGCTTGACGCTGCTG
| Oligonucleotide | fluorescence intensity [a.u.] |
| --- | --- |
| CTAAAGCCTATTTCTCACGTTTTCCGGCACTTATTC | 555 |
| CTAATAGCAATCGTTTGTGATCACCATTGTCGATTC | 524 |
| CCTAACTACTATAATTATGTGACATAGCTTCGTACA | 526 |
| CTATTGTGTACAGACACGTGCATTTTTGGTACGTTC | 6130 |
| GAAGTGTGTGGGTGTGGTGTGGGTGTGGGTGTGTAG | 553 |
| CTAGGAGGGTATAATCACATGCAGATATAATTTTTC | 1420 |
| GAAAAACCTTTCCCTCATGATCTCCTAATTTGATAG | 564 |
| CTAGCGGAAGAGAAGCACGAGACACGGGTCACTTTC | 1070 |
| CTAATAGATTTTTAGTACGTGCCTTTTATTTTATTC | 548 |
| CTATATTAACCTCACAACGTGATAGAAACCTTGTTC | 1150 |
| CTATCGTAACCTCGTTCCATGTGACATTCTTTTTTC | 2500 |
| CTAAACGTAAATACCAACGTGTGCTATCGCATTTTC | 542 |
| GAAGACATGTAACATCATCACTTCAAGCACAAATAG | 564 |
| CTAACCACATAATCACACGTGATAAATAGTCCCTTC | 5260 |
| CTATTTATAATTTTTCACCTGTTTCTTTTTGAATTC | 541 |
| CTATGATAAATTCACCACATGTATCTATATATGTTC | 758 |
| CTAAAGCAAGGCAGCATCAGAACGTACCGTCAGTTC | 478 |
| GAAAAGGTGTCACGTGATCAGATGGTCTTTTTTTAG | 43300 |
| GAATTGTACTTGTTTCATCAGATTCTTACATCATAG | 513 |

Set 3
Target: Sal-like protein 4, full length isoform B (SALL4, Homo sapiens, UniProt Q9UJQ4-2, residues 1-616)
Method: universal PBM
Molecule type: double-stranded DNA, one strand shown
Sample: in vitro
Tested at: not given
Setting: 8-mer, flanks averaged, mean of replicates
Reading: higher = stronger binding
| Oligonucleotide | E-score |
| --- | --- |
| ACTCGTTA | 0.0595 |
| AGATAATC | 0.153 |
| GCAGACGA | -0.0193 |
| AGGACAGG | -0.251 |
| AAGCAGTC | -0.147 |
| CGACGAGC | -0.232 |
| GGGGCGAA | -0.188 |
| ACAGATGT | 0.117 |
| TATCAGAA | 0.114 |
| GAGCCCAC | -0.201 |
| AAGGAGCT | -0.115 |
| CGTTCATC | -0.043 |
| CCATAATC | 0.246 |
| CGGAACTC | -0.301 |
| AGACAAGC | -0.0649 |
| AATTACGG | 0.129 |
| AGCGAGCA | -0.139 |
| AACCGATT | 0.0711 |
| AAACGCCG | -0.0473 |
| CAATGAAC | 0.0118 |

Set 4
Target: Ras GTPase-activating protein-binding protein 1, full length (G3BP1, Homo sapiens, UniProt Q13283)
UniProt Q13283, sequence (whole entry, looked up): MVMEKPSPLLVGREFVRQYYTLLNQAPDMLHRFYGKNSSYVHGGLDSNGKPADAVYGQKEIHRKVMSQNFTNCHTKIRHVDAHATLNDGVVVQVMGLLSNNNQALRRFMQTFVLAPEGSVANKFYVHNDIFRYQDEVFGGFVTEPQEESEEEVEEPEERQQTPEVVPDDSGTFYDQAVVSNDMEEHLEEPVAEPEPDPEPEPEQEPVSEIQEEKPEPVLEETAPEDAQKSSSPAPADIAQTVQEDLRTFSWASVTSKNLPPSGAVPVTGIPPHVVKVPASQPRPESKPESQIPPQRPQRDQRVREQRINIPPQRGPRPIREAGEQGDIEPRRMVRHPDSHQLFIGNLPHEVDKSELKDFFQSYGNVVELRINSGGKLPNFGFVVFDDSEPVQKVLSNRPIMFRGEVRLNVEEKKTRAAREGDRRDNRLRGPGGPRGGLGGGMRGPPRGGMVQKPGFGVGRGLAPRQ
Method: RNA Bind-n-Seq
Molecule type: RNA
Sample: in vitro
Tested at: 200 nM
Setting: whole 134-nt RNA, ends assumed
With: 150 mM KCl
Reference: input library
Reading: higher = stronger binding
Constant ends, left off below: GGGAGUUCUACAGUCCGACGAUC … UGGAAUUCUCGGGUGUCAAGG
| Oligonucleotide | log2 enrichment |
| --- | --- |
| CUCAAGUCCUGUGCUACACAUCGUAUGUACCGAAUCGGAAGGAAGGGAAGGGGAAAGUAUUAUGUUACGCCGUUCGGAUCUGCACUUCCA | -0.185 |
| UCCUCAAGUCCUGUGCUACACAUCGUAUGUACCGAAUCGGGGCGGCGGCGGAAAGUAUUAUGUUACGCCGUUCGGAUCUGCACUUCCAGC | -0.295 |
| UACUAUGAAGCCUUGUGCAAAUCCCUCGACUGGCAGAUAGACGUGGACCUACUCAAUAAAAUGAAGAAGGCAAAUGAAGAUGAGUUGAAG | -0.215 |
| CACAGACAACACGCACCCACACAGACACAGAGGGAAGGGGUUGGGAUGGGGACCGGGUGCACAGCAGGGCGGGGUAGGACCCCAGCCCCU | 1.9 |
| GUCCUGUGCUACACAUCGUAUGUACCGAAUCGGGGAAAAAGGGGUUUGGGGAAAGGGGAAAGUAUUAUGUUACGCCGUUCGGAUCUGCAC | 0.6 |
| GUCCUGUGCUACACAUCGUAUGUACCGAAUCGGAAAAAGGGGAAAAAGGGAAAAAGGGGAAAGUAUUAUGUUACGCCGUUCGGAUCUGCA | -0.189 |
| UCCUCAAGUCCUGUGCUACACAUCGUAUGUACCGAAUCGGAGGGGAGGAGGGAAAGUAUUAUGUUACGCCGUUCGGAUCUGCACUUCCAG | 0.334 |
| UUGCCACUCUAAAUUCAGAAGAGGAGAGCGACCCUCCAACCUACAAGGAUGCCUUCCCUCCACUUCCUGAGAAAGCUGCUUGCCUGGAAA | 0.124 |
| UGUGCUACACAUCGUAUGUACCGAAUCGGGAAAAAAAGGGGAAAAAAAGGGGAAAAAAAGGGGAAAGUAUUAUGUUACGCCGUUCGGAUC | -0.468 |

A few entries again (set 2):
| Oligonucleotide | fluorescence intensity [a.u.] |
| --- | --- |
| CTATCGTAACCTCGTTCCATGTGACATTCTTTTTTC | 2500 |
| CTAAAGCCTATTTCTCACGTTTTCCGGCACTTATTC | 555 |
| CTAAACGTAAATACCAACGTGTGCTATCGCATTTTC | 542 |
